Assay results from different studies.
Each line is one published result; not all experiments were run side by side. Numbers after ± are the reported error.
GLP1R: Glucagon-like peptide 1 receptor (GLP1R, Homo sapiens, UniProt P43220)
Chain of UniProt P51532 (537-1393, unmodified, looked up): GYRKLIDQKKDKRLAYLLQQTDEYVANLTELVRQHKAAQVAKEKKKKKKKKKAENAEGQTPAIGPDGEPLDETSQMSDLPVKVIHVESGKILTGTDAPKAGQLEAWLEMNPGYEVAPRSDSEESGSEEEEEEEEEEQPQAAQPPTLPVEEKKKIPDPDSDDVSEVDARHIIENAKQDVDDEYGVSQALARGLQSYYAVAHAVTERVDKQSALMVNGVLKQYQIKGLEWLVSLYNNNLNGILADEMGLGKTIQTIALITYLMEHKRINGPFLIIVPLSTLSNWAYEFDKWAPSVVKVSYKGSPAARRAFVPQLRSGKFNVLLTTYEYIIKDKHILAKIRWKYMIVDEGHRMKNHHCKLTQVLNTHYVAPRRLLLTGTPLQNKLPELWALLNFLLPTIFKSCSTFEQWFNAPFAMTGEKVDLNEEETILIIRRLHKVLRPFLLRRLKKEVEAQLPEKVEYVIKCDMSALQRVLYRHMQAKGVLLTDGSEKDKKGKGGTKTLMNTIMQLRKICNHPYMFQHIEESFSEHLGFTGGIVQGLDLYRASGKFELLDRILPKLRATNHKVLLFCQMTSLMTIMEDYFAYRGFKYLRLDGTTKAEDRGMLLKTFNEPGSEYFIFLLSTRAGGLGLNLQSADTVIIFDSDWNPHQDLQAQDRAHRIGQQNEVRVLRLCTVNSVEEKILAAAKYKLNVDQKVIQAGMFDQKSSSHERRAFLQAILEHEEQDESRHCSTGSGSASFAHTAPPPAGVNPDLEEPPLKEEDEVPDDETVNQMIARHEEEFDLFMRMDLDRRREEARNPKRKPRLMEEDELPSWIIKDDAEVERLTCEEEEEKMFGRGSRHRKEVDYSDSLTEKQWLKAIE
Chain of UniProt P17787 (whole entry, looked up): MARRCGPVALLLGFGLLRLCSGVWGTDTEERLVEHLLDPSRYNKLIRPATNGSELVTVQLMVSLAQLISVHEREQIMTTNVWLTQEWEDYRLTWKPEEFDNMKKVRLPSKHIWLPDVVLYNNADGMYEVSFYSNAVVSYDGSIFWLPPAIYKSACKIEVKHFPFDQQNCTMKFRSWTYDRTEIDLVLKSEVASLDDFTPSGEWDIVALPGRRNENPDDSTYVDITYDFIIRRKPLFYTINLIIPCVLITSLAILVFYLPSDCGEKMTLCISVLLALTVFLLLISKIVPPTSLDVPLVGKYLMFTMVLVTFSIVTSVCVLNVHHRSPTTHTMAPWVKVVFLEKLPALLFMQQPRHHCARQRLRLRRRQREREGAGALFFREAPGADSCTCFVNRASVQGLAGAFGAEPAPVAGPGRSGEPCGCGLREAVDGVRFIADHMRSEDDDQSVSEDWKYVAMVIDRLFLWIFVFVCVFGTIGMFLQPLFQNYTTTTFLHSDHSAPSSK
Chain of UniProt P34995 (whole entry, unmodified, looked up): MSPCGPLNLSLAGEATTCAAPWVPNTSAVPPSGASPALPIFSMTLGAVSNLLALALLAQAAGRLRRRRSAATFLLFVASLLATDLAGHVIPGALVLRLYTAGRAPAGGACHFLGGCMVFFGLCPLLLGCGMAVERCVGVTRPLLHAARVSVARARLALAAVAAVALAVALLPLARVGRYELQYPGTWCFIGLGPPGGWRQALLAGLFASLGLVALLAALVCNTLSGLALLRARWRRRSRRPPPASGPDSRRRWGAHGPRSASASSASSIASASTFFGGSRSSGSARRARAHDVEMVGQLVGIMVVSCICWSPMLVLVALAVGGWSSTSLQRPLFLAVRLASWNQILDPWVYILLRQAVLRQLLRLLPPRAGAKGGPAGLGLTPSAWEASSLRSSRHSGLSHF
Chain of UniProt P43681 (whole entry, looked up): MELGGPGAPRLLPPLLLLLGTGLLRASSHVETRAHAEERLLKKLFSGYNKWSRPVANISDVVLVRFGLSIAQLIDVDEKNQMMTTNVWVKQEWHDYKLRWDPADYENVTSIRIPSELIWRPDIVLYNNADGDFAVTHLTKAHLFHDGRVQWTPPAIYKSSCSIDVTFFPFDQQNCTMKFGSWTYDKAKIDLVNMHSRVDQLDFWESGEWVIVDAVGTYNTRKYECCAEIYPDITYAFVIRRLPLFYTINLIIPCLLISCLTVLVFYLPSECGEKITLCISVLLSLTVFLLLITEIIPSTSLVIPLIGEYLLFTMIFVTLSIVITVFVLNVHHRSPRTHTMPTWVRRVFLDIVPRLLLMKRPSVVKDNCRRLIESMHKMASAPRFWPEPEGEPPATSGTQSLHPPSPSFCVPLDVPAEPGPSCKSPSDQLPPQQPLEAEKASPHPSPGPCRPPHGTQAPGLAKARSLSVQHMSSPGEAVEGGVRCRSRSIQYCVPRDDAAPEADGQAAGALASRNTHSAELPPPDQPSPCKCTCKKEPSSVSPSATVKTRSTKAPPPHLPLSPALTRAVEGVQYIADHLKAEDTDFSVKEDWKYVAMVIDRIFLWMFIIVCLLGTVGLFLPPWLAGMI
Chain of UniProt P40337 (whole entry, unmodified, looked up): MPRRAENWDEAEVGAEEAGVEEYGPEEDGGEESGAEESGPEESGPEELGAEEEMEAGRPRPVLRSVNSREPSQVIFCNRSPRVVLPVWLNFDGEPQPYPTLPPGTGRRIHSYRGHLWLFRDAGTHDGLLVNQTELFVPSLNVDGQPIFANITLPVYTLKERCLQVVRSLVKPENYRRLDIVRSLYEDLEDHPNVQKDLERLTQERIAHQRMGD
Chain of UniProt Q8IZF2 (whole entry, looked up): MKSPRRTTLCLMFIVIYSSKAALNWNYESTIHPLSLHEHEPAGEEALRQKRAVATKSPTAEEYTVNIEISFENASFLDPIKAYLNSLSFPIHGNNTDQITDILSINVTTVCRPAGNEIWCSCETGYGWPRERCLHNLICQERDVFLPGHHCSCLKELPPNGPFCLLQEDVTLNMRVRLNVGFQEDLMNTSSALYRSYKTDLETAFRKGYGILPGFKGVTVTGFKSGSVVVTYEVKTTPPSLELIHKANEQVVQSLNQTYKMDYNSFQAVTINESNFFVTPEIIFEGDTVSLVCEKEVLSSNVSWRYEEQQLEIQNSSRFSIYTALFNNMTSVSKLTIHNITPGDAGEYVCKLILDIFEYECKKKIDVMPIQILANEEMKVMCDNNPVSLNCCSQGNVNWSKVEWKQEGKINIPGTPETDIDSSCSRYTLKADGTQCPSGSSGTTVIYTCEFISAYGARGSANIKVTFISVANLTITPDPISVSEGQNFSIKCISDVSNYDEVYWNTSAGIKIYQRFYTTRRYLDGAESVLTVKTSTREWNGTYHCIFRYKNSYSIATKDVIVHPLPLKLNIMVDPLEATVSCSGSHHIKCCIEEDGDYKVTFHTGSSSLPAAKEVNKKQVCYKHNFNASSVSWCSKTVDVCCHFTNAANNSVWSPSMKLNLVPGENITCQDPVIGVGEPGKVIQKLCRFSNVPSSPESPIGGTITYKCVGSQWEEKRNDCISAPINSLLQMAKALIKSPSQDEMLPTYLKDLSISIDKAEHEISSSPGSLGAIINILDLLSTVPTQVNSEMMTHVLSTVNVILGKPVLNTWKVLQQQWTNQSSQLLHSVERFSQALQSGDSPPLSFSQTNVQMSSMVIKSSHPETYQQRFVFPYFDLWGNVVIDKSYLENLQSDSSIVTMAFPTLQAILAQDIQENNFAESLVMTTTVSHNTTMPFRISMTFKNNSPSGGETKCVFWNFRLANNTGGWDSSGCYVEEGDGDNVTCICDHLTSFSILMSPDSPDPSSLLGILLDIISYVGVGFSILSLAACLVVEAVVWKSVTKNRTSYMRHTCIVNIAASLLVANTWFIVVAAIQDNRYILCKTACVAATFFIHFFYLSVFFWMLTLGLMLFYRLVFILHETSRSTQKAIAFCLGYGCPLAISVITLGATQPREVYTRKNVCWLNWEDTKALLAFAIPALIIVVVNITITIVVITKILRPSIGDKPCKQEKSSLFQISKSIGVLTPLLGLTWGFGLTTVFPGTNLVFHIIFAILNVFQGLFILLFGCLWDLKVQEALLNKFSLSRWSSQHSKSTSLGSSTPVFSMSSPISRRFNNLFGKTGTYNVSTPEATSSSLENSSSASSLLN

| Structure (SMILES) | tested on | test | test system | setting | scale | quantity | value |
| --- | --- | --- | --- | --- | --- | --- | --- |
| CC(=O)N[C@H](C(=O)N1C[C@H](O)C[C@H]1C(=O)NCc1ccc(-c2scnc2C)cc1)C(C)(C)SCCCCCCNC(=O)C[C@@H]1N=C(c2ccc(Cl)cc2)c2c(sc(C)c2C)-n2c(C)nnc21 | BRD4/VHL, BD2; with elongins B/C (Homo sapiens, UniProt O60885+P40337, A384K/E383V/K378Q) | ITC |  | 25 °C, BRD4 BD2 mutant, ternary |  | −TΔS | -3 ± 1 kcal/mol |
| O=C(Nc1ccc([C@H]2[C@@H](F)[C@@H](F)C[C@@H](F)[C@H]2F)cc1)c1cn[nH]c1 |  |  | dog liver microsomes | 1 µM |  | hepatic clearance | 7.3 mL/min/kg |
| O=C(Nc1c[nH]nc1-c1nc2ccc(CN3CCOCC3)cc2[nH]1)NC1CC1 | NanoBiT HiBiT/LgBiT luciferase | inhibitor, HiBiT luminescence counterscreen | conditioned medium only | 5 µM, 24 h | relative to: vehicle | luminescence signal reduction | -4.14% |
| COc1cc(/C=C/c2ccc(O)cc2)cc(OC)c1 | O-methyltransferase (Sorghum bicolor, UniProt A0A1B6PFV1) | biolayer interferometry |  | together with: saturating SAH |  | cooperativity factor σ | 35.3 |
| CC[C@H](C)[C@H](NC(=O)[C@H](Cc1ccccc1)NC(=O)[C@H](CCC(=O)O)NC(=O)[C@H](CCCNC(=N)N)NC(=O)[C@H](C)NC(=O)[C@H](C)NC(=O)[C@H](CCC(N)=O)NC(=O)[C@H](CCC(=O)O)NC(=O)[C@H](CCC(=O)O)NC(=O)[C@H](CC(C)C)NC(=O)[C@H](Cc1ccc(O)cc1)NC(=O)[C@H](CO)NC(=O)[C@H](CO)NC(=O)[C@H](CCCCNc1c(NCCCCCN(O)C(=O)CCC(=O)NCCCCCN(O)C(=O)CCC(=O)NCCCCCN(O)C(C)=O)c(=O)c1=O)NC(=O)[C@H](CC(=O)O)NC(=O)[C@H](CO)NC(=O)[C@@H](NC(=O)[C@H](Cc1ccccc1)NC(=O)[C@@H](NC(=O)CNC(=O)[C@H](CCC(=O)O)NC(=O)[C@H](C)NC(=O)CCc1cnc[nH]1)[C@@H](C)O)[C@@H](C)O)C(=O)N[C@@H](C)C(=O)N[C@@H](Cc1c[nH]c2ccccc12)C(=O)N[C@@H](CC(C)C)C(=O)N[C@H](C(=O)N[C@@H](CCCCNc1c(NCCCCCN(O)C(=O)CCC(=O)NCCCCCN(O)C(=O)CCC(=O)NCCCCCN(O)C(C)=O)c(=O)c1=O)C(=O)NCC(=O)N[C@@H](CCCNC(=N)N)C(=O)N[C@@H](CCCCNC(=O)COCCOCCNC(=O)COCCOCCNC(=O)CC[C@H](NC(=O)CCCCCCCCCCCCCCCCC(=O)O)C(=O)O)C(=O)O)C(C)C | GLP1R | agonist, CRE luciferase reporter | BHK cells | metal-free DFO conjugate, together with: 1% HSA | relative to: parent peptide | fold potency loss | 35.7 |
| CCOc1ccc(NC(=O)O[C@@H](Cn2nc(C(C)C)cc2C(C)C)C(C)C)cc1 | Neuronal acetylcholine receptor; alpha4/beta2, (α4)2(β2)3 stoichiometry (Homo sapiens, UniProt P17787+P43681) | ACh-evoked current, two-electrode voltage clamp |  | 1 µM, high-sensitivity stoichiometry, together with: ACh 1 µM | relative to: ACh alone | current | 983 ± 107% |
| O=C1CCC(N2C(=O)c3cccc(NCCCCNC(=O)c4cccc(C#Cc5cc(NC(=O)Nc6ccnc(Cl)c6)ccn5)c4)c3C2=O)C(=O)N1 (stereo not drawn) | SWI/SNF-related matrix-associated actin-dependent regulator of chromatin subfamily A member 4, residues 537-1393 (SMARCA4, Homo sapiens, UniProt P51532) | ITC |  |  |  | ΔH | -18.3 kcal/mol |
| CC[C@H](C)[C@@H]1NC(=O)[C@H]([C@@H](C)O)NC(=O)[C@@H]2CCCN2C(=O)[C@H](CC(C)C)NC(=O)[C@H](Cc2ccc(O)cc2)NC(=O)CSC[C@@H](C(N)=O)NC(=O)[C@H](CC(C)C)NC(=O)[C@@H]2CCCN2C(=O)[C@H](Cc2c[nH]cn2)NC(=O)[C@H](Cc2c[nH]c3ccccc23)NC(=O)[C@H](CC(C)C)NC(=O)[C@H](Cc2c[nH]cn2)NC(=O)CNC(=O)[C@H](C(C)C)NC(=O)CNC(=O)[C@H]([C@@H](C)O)NC1=O | Vacuolar protein sorting-associated protein 29 (VPS29, Homo sapiens, UniProt Q9UBQ0) | binding, ITC |  | 25 °C, protein alone |  | ΔG | -8.4 ± 0.06 kcal/mol |
| O=C(Cc1cccnc1)Nc1ccc(C2CCCCC2)cc1 |  |  | rat liver microsomes | 1 µM |  | hepatic clearance | 48 mL/min/kg |
| CC[C@H](C)[C@H](NC(=O)[C@H](Cc1ccccc1)NC(=O)[C@H](CCC(=O)O)NC(=O)[C@H](CCCNC(=N)N)NC(=O)[C@H](C)NC(=O)[C@H](C)NC(=O)[C@H](CCC(N)=O)NC(=O)[C@H](CCC(=O)O)NC(=O)[C@H](CCC(=O)O)NC(=O)[C@H](CC(C)C)NC(=O)[C@H](Cc1ccc(O)cc1)NC(=O)[C@H](CO)NC(=O)[C@H](CO)NC(=O)[C@@H](NC(=O)[C@H](CC(=O)O)NC(=O)[C@H](CO)NC(=O)[C@@H](NC(=O)[C@H](Cc1ccccc1)NC(=O)[C@@H](NC(=O)CNC(=O)[C@H](CCC(=O)O)NC(=O)[C@H](C)NC(=O)CCc1cnc[nH]1)[C@@H](C)O)[C@@H](C)O)C(C)C)C(=O)N[C@@H](C)C(=O)N[C@@H](Cc1c[nH]c2ccccc12)C(=O)N[C@@H](CC(C)C)C(=O)N[C@H](C(=O)N[C@@H](CCCNC(=N)N)C(=O)NCC(=O)N[C@@H](CCCNC(=N)N)C(=O)N[C@@H](CCCCNC(=O)COCCOCCNC(=O)COCCOCCNC(=O)CC[C@H](NC(=O)CCCCCCCCCCCCCCCCC(=O)O)C(=O)O)C(=O)NCC(=O)NCC(=O)N[C@@H](CO)C(=O)N[C@@H](CCCCNc1c(NCCCCCN(O)C(=O)CCC(=O)NCCCCCN(O)C(=O)CCC(=O)NCCCCCN(O)C(C)=O)c(=O)c1=O)C(=O)NCC(=O)NCC(=O)N[C@@H](CO)C(=O)N[C@@H](CCCCNc1c(NCCCCCN(O)C(=O)CCC(=O)NCCCCCN(O)C(=O)CCC(=O)NCCCCCN(O)C(C)=O)c(=O)c1=O)C(=O)O)C(C)C | GLP1R | agonist, CRE luciferase reporter | BHK cells | metal-free DFO conjugate, together with: 1% HSA | relative to: parent peptide | fold potency loss | 1.9 |
| CCN1CCC[C@H]1CNC(=O)c1c(O)c(Cl)cc(Cl)c1OC | Adhesion G protein-coupled receptor F5 (ADGRF5, Homo sapiens, UniProt Q8IZF2) | β-arrestin recruitment, TANGO luminescence, item: GPR116 |  | concentration not given | relative to: basal luminescence | log2 fold change | 0.084 |
| CCCCC[C@H](O)/C=C/[C@H]1[C@H](O)CC(=O)[C@@H]1C/C=C\CCCC(=O)O | PTGER1 (Homo sapiens, UniProt P34995, S341A) | IP1 accumulation, agonist | AD293 | 1 h, EP1 S341A mutant |  | Emax | 91.4 ± 6.89% |

A few entries again:
| Structure (SMILES) | tested on | test | test system | setting | scale | quantity | value |
| --- | --- | --- | --- | --- | --- | --- | --- |
| CCOc1ccc(NC(=O)O[C@@H](Cn2nc(C(C)C)cc2C(C)C)C(C)C)cc1 | Neuronal acetylcholine receptor; alpha4/beta2, (α4)2(β2)3 stoichiometry (Homo sapiens, UniProt P17787+P43681) | ACh-evoked current, two-electrode voltage clamp |  | 1 µM, high-sensitivity stoichiometry, together with: ACh 1 µM | relative to: ACh alone | current | 983 ± 107% |
